Assay results from different studies.
Compare with care: the assays were run in different laboratories. ± gives the spread as reported. Values after ≈ are worked out from the molar mass of the structure shown.

CC[C@H](C)[C@H](NC(=O)[C@H](CCCNC(=N)N)NC(=O)[C@H](CCCCN)NC(=O)[C@H](CC(C)C)NC(=O)[C@H](CC(C)C)NC(=O)CN)C(=O)N[C@@H](CCCCN)C(=O)N[C@H](C(=O)N[C@@H](CC(C)C)C(=O)N[C@@H](CC(C)C)C(=O)NCCCC[C@H](NC(=O)[C@H](CCCCNC(=O)[C@H](CC(C)C)NC(=O)[C@H](CC(C)C)NC(=O)[C@@H](NC(=O)[C@H](CCCCN)NC(=O)[C@@H](NC(=O)[C@H](CCCNC(=N)N)NC(=O)[C@H](CCCCN)NC(=O)[C@H](CC(C)C)NC(=O)[C@H](CC(C)C)NC(=O)CN)[C@@H](C)CC)[C@@H](C)O)NC(=O)[C@H](CC(C)C)NC(=O)[C@H](CC(C)C)NC(=O)[C@@H](NC(=O)[C@H](CCCCN)NC(=O)[C@@H](NC(=O)[C@H](CCCNC(=N)N)NC(=O)[C@H](CCCCN)NC(=O)[C@H](CC(C)C)NC(=O)[C@H](CC(C)C)NC(=O)CN)[C@@H](C)CC)[C@@H](C)O)C(N)=O)[C@@H](C)O
FIC index (Klebsiella pneumoniae; checkerboard; ATCC 700603; with: polymyxin B): 0.312

CN1CC23C4C5CC5C5C4C4C2C2CC2C4C53C1 (centres unmarked)
EC50 (Influenza A virus; viral replication; MDCK, H1N1 A/PR/8/34): 4.6 µM

CNc1nc(SC)nc2ccccc12
MIC (Haemophilus influenzae; broth microdilution; H128 AcrA-): > 64 µM

N=C(N)NCC12C3CCC4C3C3C(CCC31)C42
EC50 (Influenza A virus; viral replication; MDCK, H3N2 A/HK/7/87): > 100 µM

CC[C@H](C)[C@H](NC(=O)[C@H](C)NC(=O)[C@H](CCC(=O)O)NC(=O)[C@H](CCC(=O)O)NC(=O)[C@H](CC(C)C)NC(=O)[C@H](CCCCN)NC(=O)[C@H](CCCCN)NC(=O)[C@H](CCSC)NC(=O)[C@H](CCC(=O)O)NC(=O)[C@H](Cc1ccc(O)cc1)NC(=O)[C@H](CCC(=O)O)NC(=O)[C@H](CC(C)C)NC(=O)[C@H](CC(=O)O)NC(=O)[C@H](CC(C)C)NC(=O)[C@H](Cc1ccccc1)NC(=O)[C@@H](NC(=O)[C@@H](NC(=O)[C@@H](N)CC(N)=O)C(C)C)[C@@H](C)O)C(=O)N[C@@H](CCCCN)C(=O)N[C@@H](CCCCN)C(=O)N[C@@H](CC(C)C)C(=O)N[C@@H](CCC(=O)O)C(=O)N[C@@H](CCC(=O)O)C(=O)N[C@@H](CO)C(=O)N[C@@H](Cc1ccc(O)cc1)C(=O)N[C@H](C(=O)N[C@@H](CC(=O)O)C(=O)N[C@@H](CC(C)C)C(=O)N[C@@H](CCCCN)C(=O)N[C@@H](CCC(=O)O)C(=O)N[C@@H](CC(C)C)C(=O)NCC(=O)N[C@H](C(=O)N[C@@H](Cc1ccc(O)cc1)C(=O)N[C@@H](CCC(=O)O)C(=O)N[C@@H](Cc1ccc(O)cc1)C(N)=O)[C@@H](C)O)[C@@H](C)CC
IC50 (HCoV-NL63; viral entry; pseudotyped virus): 3.7 µM

CCN(CC)CC#CCOC(=O)[C@]1(C)CCC[C@]2(C)[C@H]3C[C@H]4C(C(C)C)=C[C@]3(CC[C@H]21)[C@@H]1C(=O)CCC(=O)[C@@H]14
IC50 (Influenza A virus; viral replication; MDCK, A/Puerto Rico/8/34 (H1N1)): 10.5 µM

CSCC[C@@H](C=O)NC(=O)[C@H](CC(C)C)NC(=O)[C@H](CC(C)C)NC(C)=O
EC50 (human coronavirus NL63; viral replication): 1.24 ± 0.04 µM

Cc1ccc2nc(C)c(C(=O)NCc3cccs3)n2c1
MIC (Haemophilus influenzae; microbial growth, broth dilution; H128): > 64 µM

CCC1(CC)C2CC3CC(C2)CC1(N)C3
EC50 (Influenza A virus; viral replication; MDCK, A/Ned/378/05 (H1N1)): 4.7 ± 1.3 µM

Cc1nc(N2CCC(N(C)c3cc(C(=O)NCCN4CCCC4)cnn3)CC2)nc(C)c1CC(C)C
inhibition (human coronavirus 229E; viral replication; Huh-7; 3 µM): 53%

COc1cc(/C=C/C(=O)/C=C/c2ccc(O)c(OC)c2)ccc1O
IC50 (human immunodeficiency virus 1; viral replication; VSV-G pseudotyped pNL4-3 virus): 0.8 µM

O=S(=O)(O)CCCCCCCCCCCSC[C@H]1O[C@@H]2O[C@H]3[C@H](O)[C@@H](O)[C@@H](O[C@H]4[C@H](O)[C@@H](O)[C@@H](O[C@H]5[C@H](O)[C@@H](O)[C@@H](O[C@H]6[C@H](O)[C@@H](O)[C@@H](O[C@H]7[C@H](O)[C@@H](O)[C@@H](O[C@H]8[C@H](O)[C@@H](O)[C@@H](O[C@H]1[C@H](O)[C@H]2O)O[C@@H]8CSCCCCCCCCCCCS(=O)(=O)O)O[C@@H]7CSCCCCCCCCCCCS(=O)(=O)O)O[C@@H]6CSCCCCCCCCCCCS(=O)(=O)O)O[C@@H]5CSCCCCCCCCCCCS(=O)(=O)O)O[C@@H]4CSCCCCCCCCCCCS(=O)(=O)O)O[C@@H]3CSCCCCCCCCCCCS(=O)(=O)O
antiviral activity (Influenza A virus H3N2; viral replication; concentration not given): no inhibition

COc1ccc(-c2ccn(CC[C@](C)(C(=O)NO)S(C)(=O)=O)c(=O)c2)c(F)c1
MIC90 (Burkholderia cepacia): 0.5 µg/mL (≈ 1.21 µM)

NCC12C3CCC4C3C3C(CCC31)C42
EC50 (Influenza A virus; viral replication; MDCK, H1N1 A/PR/8/34): 9 µM

CCN(CC)CC#CCOC(=O)[C@]1(C)CCC[C@]2(C)[C@H]3C[C@H]4C(C(C)C)=C[C@]3(CC[C@H]21)[C@@H]1C(=O)OC(=O)[C@@H]14
selectivity index (Influenza A virus; MDCK, A/Puerto Rico/8/34 (H1N1); reference: CC50 over IC50): 0.49

O=C(NC12CC3CC(CC(C3)C1)C2)c1cc2cc(Cl)ccc2[nH]1
MIC (Haemophilus influenzae; broth microdilution; H128 AcrA-): > 64 µM

CN1CC23C4CCC5C4C4C2CCC4C53C1
EC50 (Influenza A virus; viral replication; MDCK, H3N2 A/HK/7/87): > 100 µM

CCCCCCCCCC(=O)NCC(=O)N[C@@H](CC(C)C)C(=O)N[C@@H](CC(C)C)C(=O)N[C@@H](CCCCN)C(=O)N[C@@H](CCCNC(=N)N)C(=O)N[C@H](C(=O)N[C@@H](CCCCN)C(=O)N[C@H](C(=O)N[C@@H](CC(C)C)C(=O)N[C@@H](CC(C)C)C(N)=O)[C@@H](C)O)[C@@H](C)CC
FIC index (Klebsiella pneumoniae; checkerboard; ATCC 700603; with: rifampicin): 0.375

CC(N)C12C3CCC4C3C3C(CCC31)C42 (centres unmarked)
EC50 (Influenza A virus; viral replication; MDCK, H1N1 A/PR/8/34): 22 µM

CN[C@H](CC(C)C)C(=O)N[C@H]1C(=O)N[C@@H](CC(N)=O)C(=O)N[C@H]2C(=O)N[C@H]3C(=O)N[C@H](C(=O)N[C@H](C(=O)O)c4cc(O)cc(O)c4-c4cc3ccc4O)[C@H](O)c3ccc(c(Cl)c3)Oc3cc2cc(c3O)Oc2ccc(cc2Cl)[C@H]1O
EC50 (Influenza A virus H3N2; viral replication; MDCK, X-31; 72 h): 58 ± 22 µM

CC(=N)N1CC23C4CCC5C4C4C2CCC4C53C1
EC50 (Influenza A virus; viral replication; MDCK, H1N1 A/PR/8/34): ≤ 2.3 µM

CC[C@H](C)[C@H](NC(=O)[C@@H](NC(=O)[C@H](CCCCN)NC(=O)[C@H](CC(=O)O)NC(=O)[C@H](CCCCN)NC(=O)[C@H](Cc1ccccc1)NC(=O)[C@H](Cc1ccccc1)NC(=O)[C@H](CO)NC(=O)[C@H](CCCCN)NC(=O)[C@H](CCSC)NC(=O)[C@H](CCCCN)NC(=O)[C@H](CCCCN)NC(=O)[C@H](Cc1c[nH]c2ccccc12)NC(=O)[C@@H](N)Cc1ccccc1)C(C)C)C(=O)N1CCC[C@H]1C(=O)N[C@@H](CCCCN)C(=O)N[C@H](C(=O)N[C@@H](CCC(N)=O)C(=O)N[C@@H](CCC(N)=O)C(=O)N[C@@H](C)C(=O)N[C@@H](Cc1ccc(O)cc1)C(=O)N[C@@H](CO)C(=O)N[C@@H](CC(C)C)C(=O)N[C@@H](Cc1ccc(O)cc1)C(=O)N[C@@H](CC(N)=O)C(=O)N[C@@H](CCCCN)C(=O)N[C@@H](CC(C)C)C(=O)N[C@@H](CCC(N)=O)C(=O)N[C@@H](Cc1c[nH]cn1)C(=O)N[C@@H](CCCCN)C(=O)N[C@@H](CC(C)C)C(N)=O)C(C)C
MIC (Aspergillus flavus; ATP luminescence; ATCC 9170; 48 h, 37 °C): > 50 µM

c1csc(CNC23C4CCC5C4C4C(CCC42)C53)c1
EC50 (Influenza A virus; viral replication; MDCK, H3N2 A/HK/7/87): > 100 µM

CCCCCC(=O)NCC(=O)N[C@@H](CC(C)C)C(=O)N[C@@H](CC(C)C)C(=O)N[C@@H](CCCCN)C(=O)N[C@@H](CCCNC(=N)N)C(=O)N[C@H](C(=O)N[C@@H](CCCCN)C(=O)N[C@H](C(=O)N[C@@H](CC(C)C)C(=O)N[C@@H](CC(C)C)C(=O)NCCCC[C@H](NC(=O)[C@H](CC(C)C)NC(=O)[C@H](CC(C)C)NC(=O)[C@@H](NC(=O)[C@H](CCCCN)NC(=O)[C@@H](NC(=O)[C@H](CCCNC(=N)N)NC(=O)[C@H](CCCCN)NC(=O)[C@H](CC(C)C)NC(=O)[C@H](CC(C)C)NC(=O)CNC(=O)CCCCC)[C@@H](C)CC)[C@@H](C)O)C(N)=O)[C@@H](C)O)[C@@H](C)CC
FIC index (Klebsiella pneumoniae; checkerboard; ATCC 700603; with: polymyxin B): 0.125

CONC(=O)[C@H]1[C@@H](O)[C@@]2(O)c3c(OC)cc(OC)cc3O[C@@]2(c2ccc(OC)cc2)[C@@H]1c1ccccc1
nucleocapsid protein level (Human coronavirus 229E; concentration not given): decreased

CCCCCC(=O)NCC(=O)N[C@@H](CC(C)C)C(=O)N[C@@H](CC(C)C)C(=O)N[C@@H](CCCCN)C(=O)N[C@@H](CCCNC(=N)N)C(=O)N[C@H](C(=O)N[C@@H](CCCCN)C(=O)N[C@H](C(=O)N[C@@H](CC(C)C)C(=O)N[C@@H](CC(C)C)C(=O)NCCCC[C@H](NC(=O)[C@H](CCCCNC(=O)[C@H](CC(C)C)NC(=O)[C@H](CC(C)C)NC(=O)[C@@H](NC(=O)[C@H](CCCCN)NC(=O)[C@@H](NC(=O)[C@H](CCCNC(=N)N)NC(=O)[C@H](CCCCN)NC(=O)[C@H](CC(C)C)NC(=O)[C@H](CC(C)C)NC(=O)CNC(=O)CCCCC)[C@@H](C)CC)[C@@H](C)O)NC(=O)[C@H](CC(C)C)NC(=O)[C@H](CC(C)C)NC(=O)[C@@H](NC(=O)[C@H](CCCCN)NC(=O)[C@@H](NC(=O)[C@H](CCCNC(=N)N)NC(=O)[C@H](CCCCN)NC(=O)[C@H](CC(C)C)NC(=O)[C@H](CC(C)C)NC(=O)CNC(=O)CCCCC)[C@@H](C)CC)[C@@H](C)O)C(N)=O)[C@@H](C)O)[C@@H](C)CC
FIC index (Klebsiella pneumoniae; checkerboard; ATCC 700603; with: polymyxin B): 0.125

Cc1cccc(-c2nc(Nc3ccncn3)c3c(C)csc3n2)n1
MIC (Haemophilus influenzae; broth microdilution; H128 AcrA-): 0.25 µM (≈ 0.0836 µg/mL)

CC[C@H](C)[C@H](NC(=O)[C@H](CCCNC(=N)N)NC(=O)[C@H](CCCCN)NC(=O)[C@H](CC(C)C)NC(=O)[C@H](CC(C)C)NC(=O)CN)C(=O)N[C@@H](CCCCN)C(=O)N[C@H](C(=O)N[C@@H](CC(C)C)C(=O)N[C@@H](CC(C)C)C(=O)NCCCC[C@H](NC(=O)[C@H](CC(C)C)NC(=O)[C@H](CC(C)C)NC(=O)[C@@H](NC(=O)[C@H](CCCCN)NC(=O)[C@@H](NC(=O)[C@H](CCCNC(=N)N)NC(=O)[C@H](CCCCN)NC(=O)[C@H](CC(C)C)NC(=O)[C@H](CC(C)C)NC(=O)CN)[C@@H](C)CC)[C@@H](C)O)C(=O)NCCCC[C@H](NC(=O)[C@H](CCCCNC(=O)[C@H](CC(C)C)NC(=O)[C@H](CC(C)C)NC(=O)[C@@H](NC(=O)[C@H](CCCCN)NC(=O)[C@@H](NC(=O)[C@H](CCCNC(=N)N)NC(=O)[C@H](CCCCN)NC(=O)[C@H](CC(C)C)NC(=O)[C@H](CC(C)C)NC(=O)CN)[C@@H](C)CC)[C@@H](C)O)NC(=O)[C@H](CC(C)C)NC(=O)[C@H](CC(C)C)NC(=O)[C@@H](NC(=O)[C@H](CCCCN)NC(=O)[C@@H](NC(=O)[C@H](CCCNC(=N)N)NC(=O)[C@H](CCCCN)NC(=O)[C@H](CC(C)C)NC(=O)[C@H](CC(C)C)NC(=O)CN)[C@@H](C)CC)[C@@H](C)O)C(N)=O)[C@@H](C)O
FIC index (Klebsiella pneumoniae; checkerboard; ATCC 700603; with: gentamicin): 0.375

Cc1ccc2nc(C(F)(F)F)c(C(=O)NCc3cccc(Cl)c3)n2c1
MIC (Haemophilus influenzae; broth microdilution; H128 AcrA-): 64 µM (≈ 23.5 µg/mL)

For quick reference, copied from above:
O=C(NC12CC3CC(CC(C3)C1)C2)c1cc2cc(Cl)ccc2[nH]1
MIC (Haemophilus influenzae; broth microdilution; H128 AcrA-): > 64 µM

c1csc(CNC23C4CCC5C4C4C(CCC42)C53)c1
EC50 (Influenza A virus; viral replication; MDCK, H3N2 A/HK/7/87): > 100 µM

CCN(CC)CC#CCOC(=O)[C@]1(C)CCC[C@]2(C)[C@H]3C[C@H]4C(C(C)C)=C[C@]3(CC[C@H]21)[C@@H]1C(=O)CCC(=O)[C@@H]14
IC50 (Influenza A virus; viral replication; MDCK, A/Puerto Rico/8/34 (H1N1)): 10.5 µM
